Measurements from different studies.
Numbered parts are unrelated; each lists some results of a single study. Positions count from the first letter of the parent shown.

Sample 1 — technique: RNA Bind-n-Seq; form: RNA; medium: in vitro; tested at: not given; relative to: input RNA pool; reading: higher = stronger binding
Target: RING finger protein unkempt homolog, zinc fingers 1-6, GST-SBP tag (UNK, Homo sapiens, UniProt Q9C0B0, residues 30-357)
Notes: RNA with constant flanks, human-mouse chimeric sites, ends assumed
Constant ends, left off below: GGGAGUUCUACAGUCCGACGAUC … CAACAGAGGAUUGAGCAUCA
Construct (chain): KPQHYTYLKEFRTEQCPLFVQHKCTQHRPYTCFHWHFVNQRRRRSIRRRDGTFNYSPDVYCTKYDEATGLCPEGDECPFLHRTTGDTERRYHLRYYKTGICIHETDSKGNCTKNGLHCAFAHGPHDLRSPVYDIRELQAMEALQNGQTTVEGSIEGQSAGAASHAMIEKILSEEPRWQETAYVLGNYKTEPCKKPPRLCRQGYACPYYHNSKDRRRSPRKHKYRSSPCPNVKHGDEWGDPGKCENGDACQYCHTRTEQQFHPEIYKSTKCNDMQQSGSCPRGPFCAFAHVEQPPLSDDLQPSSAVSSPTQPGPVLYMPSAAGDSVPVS
| Oligonucleotide | bound/input enrichment |
| --- | --- |
| AGCACAACACCAGCUAAGCUAAGAAAUCCUUGUACAAGUGAACAAAACUGCACCAGCCCAUUUAGCUACAAAAAUGUGCUCAGUCUUACUGACAGAGGAGAGUUUUUCAAUGAACUUGUU | 1.9 ratio |
| CCCCAAUACCAUUUGCAGGUCUGGAACUGCACUCUCUUUUUUAAAAAACAUGUAUACAUUUUAGGGCUGUAGACUUAUUUUCCUGGUUUUGUUUUUCAUUGCUGACUUUUGAGCACAGAA | 1.71 ratio |
| GGCUGCUGGUGACUGUCGGGAGCCGUCCGUGUCACCGGCCGGAGCGCGGCCAGACUAAUUUUAGAAAAUGCCAAGUAGGAAGUUUGUUGAGGGUGAAGUGGUCAGAGGCCGAUGGCCUGG | 2.32 ratio |
| AACUUCGUGCAUCGGUUUCCCUUUGUAGCUGUUUCAAUUGGCUUCCUUGUGAAUAAAGAGAUGGAGUUUGGAAUUGUGUACAGUUGUGUGGAAGAUAAGAUGUACACUGCCAGAAAAGGG | 0.398 ratio |
| UGACAAGGGCACUGCAGAGCCAUGCCUUUCCUUGACAUCCAGAAAAGGCUGGGCAUCAGCCUGGACCGGCACUUUAUGUUCCUAAGCGCAGAACAGCCCUAUAAGAAGGCUGGUCGAUGC | 0.0634 ratio |
| AUGGAACAUUUCGAUGCGUCACUCAGUACCUAUUUCAAGGCCUUCCUAGGCCCUCGAGAUACAAGAGUCAAAGGAUGGUUUCUUCUGGACAAUUACAUCCCUACGUUUGUCUGUUCUGUU | 0.102 ratio |
| UCAACAGACAACAUCAAAUACCAGCCUAAAGGGGGGCAGGUACAAAUUGUUACCAAGAAAAUAGACCUAAGCCAUGUGACAUCCAAAUGUGGCUCUCUAAAGAACAUCCGCCACAGGCCA | 0.746 ratio |
| AAAGAGAAACUAAAGCAAACUGAUUGAAAGAGGAUUGGGCAAAGAGAUUUCAUAGAGAAACUAGGAUUUAUUAGCAAACAUGAGUUAUAUUCCAGAGCGUCUCAGAAACCCCAGCCAAAC | 2.74 ratio |

Sample 2 — technique: universal PBM; form: double-stranded DNA, one strand shown; medium: in vitro; tested at: 600 nM; reading: higher = stronger binding
Target: Sal-like protein 4, full length isoform A (SALL4, Homo sapiens, UniProt Q9UJQ4, residues 1-1053)
Chain of UniProt Q9UJQ4 (whole entry, looked up): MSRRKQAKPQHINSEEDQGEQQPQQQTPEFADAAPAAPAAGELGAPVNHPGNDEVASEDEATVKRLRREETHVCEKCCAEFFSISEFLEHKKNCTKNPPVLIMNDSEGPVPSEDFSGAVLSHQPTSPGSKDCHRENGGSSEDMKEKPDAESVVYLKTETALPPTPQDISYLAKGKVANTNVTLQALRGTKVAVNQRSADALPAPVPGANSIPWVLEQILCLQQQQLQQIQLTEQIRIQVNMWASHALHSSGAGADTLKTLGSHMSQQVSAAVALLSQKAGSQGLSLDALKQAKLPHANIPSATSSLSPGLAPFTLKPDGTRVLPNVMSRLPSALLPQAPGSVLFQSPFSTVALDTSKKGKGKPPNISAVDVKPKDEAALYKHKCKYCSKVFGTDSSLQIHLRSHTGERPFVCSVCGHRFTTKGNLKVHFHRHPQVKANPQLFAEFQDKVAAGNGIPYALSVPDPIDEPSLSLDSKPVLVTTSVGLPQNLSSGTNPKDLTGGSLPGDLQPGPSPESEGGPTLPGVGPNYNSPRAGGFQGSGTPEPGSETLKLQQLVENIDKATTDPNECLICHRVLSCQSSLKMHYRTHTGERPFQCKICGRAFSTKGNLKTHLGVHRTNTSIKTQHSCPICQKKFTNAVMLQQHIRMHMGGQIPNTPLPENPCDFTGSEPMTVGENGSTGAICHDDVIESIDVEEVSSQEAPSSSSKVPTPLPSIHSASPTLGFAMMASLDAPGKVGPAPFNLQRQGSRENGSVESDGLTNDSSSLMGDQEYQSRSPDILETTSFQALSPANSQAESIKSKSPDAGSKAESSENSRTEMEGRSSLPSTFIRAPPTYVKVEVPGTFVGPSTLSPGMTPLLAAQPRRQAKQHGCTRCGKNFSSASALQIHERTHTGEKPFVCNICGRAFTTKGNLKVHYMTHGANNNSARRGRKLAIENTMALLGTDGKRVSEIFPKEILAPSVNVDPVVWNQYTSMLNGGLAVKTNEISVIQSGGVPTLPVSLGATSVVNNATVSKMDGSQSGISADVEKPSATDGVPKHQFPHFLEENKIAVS
Notes: 8-mer, flanks averaged, mean of replicates
| Oligonucleotide | E-score |
| --- | --- |
| AATATCTG | 0.259 |
| AATCGGCG | -0.257 |
| AGACTGCC | -0.151 |
| AAGTCACT | 0.0853 |
| CTGATTAA | 0.161 |
| AGTTTCCC | -0.197 |
| CCACAGTC | -0.228 |
| AGTACACT | 0.046 |
| CGAACCTC | -0.0204 |
| CGAGTCTC | -0.252 |
| ACTTTAAG | 0.149 |
| ATTCCCGA | -0.0202 |
| CTCGTGGC | -0.171 |
| CCGACCCC | -0.362 |
| ACGGGTAA | -0.111 |
| CCTAAAGC | -0.206 |
| AGAACGAC | -0.0409 |
| ATGTAACC | 0.0455 |
| GGGATAAC | -0.0342 |
| CTGCTTAA | -0.0274 |
| ATAATTAA | 0.401 |
| AAATGTCG | -0.0154 |
| TTCGTCAA | 0.184 |
| CTTTACGC | 0.00786 |
| AACACAAA | 0.178 |

Sample 3 — technique: RNA Bind-n-Seq; form: RNA; medium: in vitro; tested at: 365 nM; relative to: no-protein control; reading: higher = stronger binding
Target: RNA binding protein fox-1 homolog 2, RRM domain, GST-SBP tag (RBFOX2, Homo sapiens, UniProt O43251-10, residues 100-194)
Notes: natural RNA segment, single round, ends assumed
Constant ends, left off below: GGGAGUUCUACAGUCCGACGAUC … UGGAAUUCUCGGGUGCCAA
Residues (chain): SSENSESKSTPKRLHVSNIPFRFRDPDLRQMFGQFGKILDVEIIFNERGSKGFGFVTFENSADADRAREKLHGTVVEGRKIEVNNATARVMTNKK
| Oligonucleotide | RBNS enrichment (R) |
| --- | --- |
| CCUUCCUUCAUCCUUGGGGGUCUCAGGCUGCCCCCAUCAUGGGGGUCUGGGCCCUGCCCACCCUCCUGCCCUCCCCCAGCCACCUGGCUGCAUUUUUGAAGCUGCCUGGC | 0.242 |
| AGUGGGCCAACUACAAUCCUCAUCUCCUAAAGUCAUCUACAGAUGGCAGGUGGAAGAAAGUGGUUCUCCAUUCCACAUCCACUGCCAGUGUGCAUGGGGAGGGCAGGGGA | 4.54 |
| CACACACAUAACAAGCCACAUAUUCUGUAAAAGCCUGAGAGAUUCCAGCCCAGAGAGAUUUGAUGCUUUCUUCUGUCUUCUGUGUAUGCUCAGACACACACACACACACA | 1.03 |
| GCAACUAAAAAUAUUACAGUUUAAUAAUCAAUUAAACCAACCAACAAUAAGCACUACACAUCUGCCACCAACAAUGUUGUUUGCAUUUACCUUACCAAUAUUAAUCCCAG | 0.78 |
| GACAUGGCAUGAAGCCAGAGAGUGAGAGACAUUAACUCAUUAGACUGGAACUUGAACUGAUUCACAUCUCAUUUUUCCGUAAAAAUGAUUUCAGUAGCACAAGUUAUUUA | 0.693 |
| CCCUAUGUCUUCUGUGGAGUUACAGUAUAAAGCAGGGAGCUAAUUAAGAGUAUUAAAACUUAAAACCAUUUUUUGACUCUGAUUUUAAGUACAUUUUUAUAUGUCAGUUG | 0.437 |
| AUAUUAUUUUCUCUUUUGGUGUGGGAGAUCAAAGGUUUAAAGUCUAACUUCUAAGAUAUAUUUGCAGAAAGAAGCAACAUGACAAUAGAGAGAGUUAUGCUACAAUUAUU | 0.855 |
| CUUGUCCCAGGAGAACUGACCACAGUAGUUCCCACUGUAUAAUUUUUAUGUUGAGCCAAGAGAGAAUAUGUUGCACUUUAAACACGCUGUGUCCUGCUCCCUUUGAGUGU | 0.997 |

Sample 4 — technique: protein-binding microarray; form: double-stranded DNA, one strand shown; medium: in vitro; tested at: not given; reading: higher = stronger binding
Target: Cyclic AMP-dependent transcription factor ATF-1 (ATF1, Homo sapiens, UniProt P18846, residues 1-271, full length assumed)
Notes: k-mer, scored over probes, only values ≥0.25
Construct (chain): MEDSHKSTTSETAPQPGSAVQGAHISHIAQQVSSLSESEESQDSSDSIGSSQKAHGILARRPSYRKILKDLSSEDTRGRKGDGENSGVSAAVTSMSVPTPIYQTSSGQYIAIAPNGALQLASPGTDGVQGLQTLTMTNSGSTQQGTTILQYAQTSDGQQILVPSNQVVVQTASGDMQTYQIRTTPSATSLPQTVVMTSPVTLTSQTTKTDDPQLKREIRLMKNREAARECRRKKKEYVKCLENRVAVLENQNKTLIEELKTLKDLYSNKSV
| Oligonucleotide | E-score |
| --- | --- |
| GACGCAC | 0.291 |
| GTCGTGA | 0.265 |
| TGACGAA | 0.391 |
| GACGCGC | 0.293 |
| ACGTACG | 0.398 |
| CCACACG | 0.275 |
| GACGTCA | 0.492 |
| ATACGAC | 0.277 |
| TCCGTCA | 0.327 |
| ACGAAAT | 0.264 |
| AATGCGT | 0.285 |
| ACGTAAT | 0.46 |
| AAGTGAC | 0.29 |
| CGATACG | 0.253 |
| ACGTAGC | 0.415 |
| TACGTAA | 0.455 |
| GTAGTGA | 0.252 |
| CTACGCA | 0.283 |

Sample 5 — target: CCND2, cyclin fold, Cln2 fusion (human); technique: yeast growth competition, sequencing; medium: yeast; notes: weak parent motif; relative to: not given; reading: higher = stronger binding
Starting sequence: RB1 docking peptide (human); PKPLKKLRFDIEG; partner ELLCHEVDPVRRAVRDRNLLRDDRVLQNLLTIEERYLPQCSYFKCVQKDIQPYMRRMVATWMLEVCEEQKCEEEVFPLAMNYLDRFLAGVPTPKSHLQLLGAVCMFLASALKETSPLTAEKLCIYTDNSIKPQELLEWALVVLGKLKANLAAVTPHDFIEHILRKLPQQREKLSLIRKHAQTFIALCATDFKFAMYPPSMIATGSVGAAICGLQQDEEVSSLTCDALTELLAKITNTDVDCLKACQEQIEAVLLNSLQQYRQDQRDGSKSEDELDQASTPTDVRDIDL
| Change | normalised enrichment score |
| --- | --- |
| PKPQKKLRFDIEG [L4Q] | -0.00881 |
| PKPLKKLRFDIEC [G13C] | 0.619 |
| PKPLKKLRFDIEK [G13K] | 0.921 |
| PKPLKKLRFDIES [G13S] | -0.00934 |
| PKPLKKLFFDIEG [R8F] | 0.155 |
| PKPLKKLRFDIPG [E12P] | 0.309 |
| PKPLAKLRFDIEG [K5A] | -0.11 |
| PKALKKLRFDIEG [P3A] | 0.325 |
| LKPLKKLRFDIEG [P1L] | -0.547 |
| PKPLKKLNFDIEG [R8N] | 0.216 |
| PKPLKKLGFDIEG [R8G] | -0.314 |
| PKPLKKLRFDEEG [I11E] | -0.0713 |
| PKPLRKLRLDIEG [K5R F9L] | -0.307 |
| PKPLKKTRFDIEG [L7T] | 0.00501 |
| PKPLKKLRFDIAG [E12A] | -0.0937 |
| PKPLKKMRFDIEG [L7M] | 0.144 |
| PKPVKKLRFDIEG [L4V] | 0.619 |
| PKPLKKLWFDIEG [R8W] | 0.401 |
| PKPLKKLRFDIEF [G13F] | 0.309 |

Sample 6 — technique: protein binding microarray; form: double-stranded DNA, one strand shown; medium: in vitro; tested at: not given; relative to: not given; reading: higher = stronger binding
Target: Histone acetyltransferase KAT6A, winged helix 1, GST fusion (KAT6A, Homo sapiens, UniProt Q92794, residues 1-85)
Notes: 8-mer, flanks averaged, mean of 2 arrays, mostly near background
Construct (chain): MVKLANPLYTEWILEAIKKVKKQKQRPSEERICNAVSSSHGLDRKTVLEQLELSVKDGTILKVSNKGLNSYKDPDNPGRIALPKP
| Oligonucleotide | E-score |
| --- | --- |
| GTCTCCAA | -0.141 |
| TATCCGAA | 0.0505 |
| GAAGGATC | -0.147 |
| ATATCAGA | -0.0971 |
| AGACAGCG | 0.182 |
| AAGTTGGA | -0.269 |
| GCAATAGC | 0.0256 |
| ATATAGTG | -0.0236 |
| ACCAGACA | -0.298 |
| AGAATCAG | -0.118 |
| CCGTTGTA | 0.116 |
| CATTCCGA | 0.0261 |
| ATGTAGGC | -0.0347 |
| TCATGTAA | 0.0131 |
| GCGCTTCA | 0.305 |
| CATGGCGG | 0.242 |
| AAGACCTA | -0.0849 |
| TTTCAAAA | -0.222 |
| GGTGCTAC | -0.0391 |
| GGATCACC | -0.0861 |
| GCGTCTCC | 0.299 |
| TCCAGGCA | -0.224 |
| ACCATACT | -0.175 |
| CGCCGTTA | 0.389 |

Repeated from above (sample 4):
| Oligonucleotide | E-score |
| --- | --- |
| GACGTCA | 0.492 |
| ATACGAC | 0.277 |
| CTACGCA | 0.283 |
| TACGTAA | 0.455 |
| CGATACG | 0.253 |
| GACGCAC | 0.291 |
| ACGTAAT | 0.46 |
| GTAGTGA | 0.252 |
| ACGTAGC | 0.415 |
| AATGCGT | 0.285 |
